# Experimental data pooled from the literature.
# Each line is one published result; not all experiments were run side by side. Numbers after ± are the reported error.
Structure (SMILES),target or system,test,system,conditions,how to read,quantity,result
C[C@@H](Oc1cc(-c2cnn(C3CCNCC3)c2)cnc1N)c1c(Cl)ccc(F)c1Cl,,,"human patients, plasma","oral, dose not given, cycle 2 day 1, mean, together with: avelumab",,"AUCtau, dose-normalized",13 ng·h/mL/mg
N[C@@H]1c2ccccc2OC12CCN(c1cnc3c(N4CCCc5ncccc54)n[nH]c3n1)CC2,,,"advanced metastatic solid tumour patients, plasma","oral, 150 mg once daily, cycle 1 day 1, geometric mean",,AUC(0-tau),4320 ng·h/mL
COc1cc2c(c(OC)c1OC)C(=O)c1c(cc(C)c(O)c1OC)C2=O,HepaRG co-cultured with HK-2,MTT,,"266.67 µM, 48 h",relative to: untreated control,cell viability,53 ± 8.76%
O=S(=O)(O)Oc1ccc(CCO)cc1,,,human plasma,mean,,plasma concentration,202 nM
C[C@@H](Oc1ccc(S(C)(=O)=O)cc1C(=O)N1C[C@@H]2C[C@]2(c2cc(C(F)(F)F)on2)C1)C(F)(F)F,,,human,"oral plus intravenous microtracer, dose not given",,subjects with nervous system disorders,16.7%
COc1ccc([C@@H](O)c2cc(-c3ncnc4cc(N5CCOCC5)ccc34)c(F)cc2Cl)nn1,,,"healthy volunteers, plasma","oral, 100 mg, tablet, fed high-fat, median",,tlag,0.5 h
CCn1cc(C(=O)O)c(=O)c2cnc(N3CCNCC3)nc21,,starch gel membrane permeability,Gram-negative envelope surrogate,"200 µM, 45 min, pH 7.4",,amount permeated,2.92 nmol
CCn1ncc2c1-c1cnc(N)c(c1)O[C@H](C)c1cc(F)ccc1-c1nn(C)nc1C2,,,"athymic nude mouse, female, sample A PDX, plasma","po, 0.04 mg/kg BID, 12 h, 5 days dosing",,"Cmin, unbound",0.4 ± 0.06 nM
Cc1cccc(C)c1OCC(=O)N[C@@H](Cc1ccccc1)[C@@H](O)C[C@H](Cc1ccccc1)NC(=O)[C@H](C(C)C)N1CCCNC1=O,,,"Macaca nemestrina, plasma","intravenous, time-averaged",,minimum DcNP-associated fraction,> 87%
COc1cc2c3c(n(CCCN4CCOCC4)c(=O)c2cc1OC)-c1cc2c(cc1C3=O)OCO2,,,"beagle dog, female, plasma","oral, 1720 mg/m^2, gelatin capsules",relative to: intravenous dosing,oral bioavailability,5 to 40%
CNC(=O)c1ccc(-c2cnc3ncc(Cc4ccc5ncccc5c4)n3n2)cc1F,,,Japanese patients,"oral, 400 mg, grade 3/4",,Haematuria dose reduction/interruption,1%
CCc1cc(C(=O)NC)c2nccc(N3CCc4c(cc(Cn5ccnc5)cc4-c4cn(C)nc4C(F)(F)F)C3=O)c2c1,,,"Sprague Dawley rat, male, plasma","oral, 50 mg/kg once daily, 7 days, toxicokinetic satellite group",,AUC extrapolated fraction,0.1%
Cc1ccc(OS(=O)(=O)O)c(O)c1,,,human plasma,mean,,plasma concentration,32700 nM
Clc1ccc(C(c2c[nH]c3ccccc23)c2c[nH]c3ccccc23)cc1,COS-7,,,"30 µM, 24 h, 0.1% DMSO, unit not given",relative to: vehicle control,necrotic cells,5.11 ± 1.42
COc1ncc(-c2nc3c(n2C(C)C)[C@H](c2ccc(Cl)cc2)N(c2cc(Cl)cn(C)c2=O)C3=O)c(OC)n1,,LC-MS/MS,"human, plasma","oral, 1 mg, cycle 1 day 8, low-dose arm",,AUC(0-last),109 ng·h/mL
N#Cc1ccc2c(c1)[C@H]1CCCN(C(=O)c3ccc4[nH]cnc4c3)[C@H]1C2,,,human males,"10 mg, day 15",,total testosterone level,12.8 nmol/L
CC(=O)c1c(C)cc2cc(O)cc(O[C@@H]3O[C@H](CO)[C@@H](O)[C@H](O)[C@H]3O)c2c1O,HepaRG co-cultured with HK-2,MTT,,"66.67 µM, 48 h",relative to: untreated control,cell viability,82.7 ± 13.3%
CCO[C@H]1CCN(Cc2c(OC)cc(C)c3[nH]ccc23)[C@H](c2ccc(C(=O)O)cc2)C1,,,"human moderate hepatic impairment, plasma","oral, 200 mg single dose, mean",,unbound Cmax,1150 ng/mL
N#CCNC(=O)c1ccc(-c2ccnc(Nc3ccc(N4CCOCC4)cc3)n2)cc1,,,"healthy volunteers, plasma","oral, dose not given, together with: ritonavir multiple-dose",relative to: with ritonavir over alone,AUCtau geometric mean ratio,114%
NC[C@H]1O[C@H](O[C@H]2[C@H](O)[C@@H](O[C@H]3O[C@H](CO)[C@@H](O)[C@H](N)[C@H]3O)[C@H](N)C[C@@H]2N)[C@H](N)C[C@@H]1O,,starch gel membrane permeability,Gram-negative envelope surrogate,"200 µM, 45 min, pH 7.4",,amount permeated,1.04 nmol
CCC(C)n1ncn(-c2ccc(N3CCN(c4ccc(OCC5COC(Cn6cncn6)(c6ccc(Cl)cc6Cl)O5)cc4)CC3)cc2)c1=O (stereo not drawn),,,"human, plasma","oral, dose not given, day 15 predose, mean",,trough plasma concentration,147 ng/mL
COCCOCc1ccc(-c2cc3onc(-c4ccccc4)c3c(=O)n2C)cc1,COS-7,,,"10 µM, 24 h, 0.1% DMSO, unit not given",relative to: vehicle control,necrotic cells,1.02 ± 0.16
O=C1OC[C@H](Cc2cccc(O)c2)[C@H]1Cc1cccc(O)c1,,,human plasma,"median, both sexes",,plasma concentration,389 nM
CC[C@H](C)[C@@H]1NC(=O)[C@H](CCCNC(=N)N)NC(=O)[C@H](CC(=O)O)NC(=O)[C@H](CC(C)C)NC(=O)[C@H](CCCCN)NC(=O)[C@H](CC(C)C)NC(=O)CNC(=O)[C@H](Cc2ccccc2)NC(=O)[C@@H](NC(=O)CNC(=O)[C@H](CCCCN)NC(=O)[C@H](CO)NC(=O)[C@H](CC(C)C)NC(=O)CNC(=O)[C@H](CCCCN)NC(=O)[C@H](CCCCN)NC(=O)[C@H](CC(N)=O)NC(=O)[C@H](C)NC(=O)CNC(=O)[C@H](CCCCN)NC(=O)[C@H](Cc2ccc(O)cc2)NC(=O)[C@H](CCCCN)NC(=O)[C@H](CCCNC(=N)N)NC(=O)[C@H](C)NC(=O)[C@H](CC(N)=O)NC(=O)[C@@H]2CCCN2C(=O)[C@H](Cc2c[nH]cn2)NC(=O)[C@H](CCC(=O)O)NC(=O)[C@H](CCC(N)=O)NC(=O)CNC(=O)[C@@H]2CCCN2)CSSC[C@@H](C(=O)O)NC(=O)CNC(=O)[C@H](CC(C)C)NC(=O)CNC(=O)[C@H](CO)NC(=O)[C@H](CCSC)NC(=O)[C@H](CO)NC(=O)CNC1=O,,,"human, plasma",dose not given,,AUC(0-60 min),255 ng·h/mL

# Excerpt of the above:
Structure (SMILES),target or system,test,system,conditions,how to read,quantity,result
CCO[C@H]1CCN(Cc2c(OC)cc(C)c3[nH]ccc23)[C@H](c2ccc(C(=O)O)cc2)C1,,,"human moderate hepatic impairment, plasma","oral, 200 mg single dose, mean",,unbound Cmax,1150 ng/mL
N#CCNC(=O)c1ccc(-c2ccnc(Nc3ccc(N4CCOCC4)cc3)n2)cc1,,,"healthy volunteers, plasma","oral, dose not given, together with: ritonavir multiple-dose",relative to: with ritonavir over alone,AUCtau geometric mean ratio,114%
NC[C@H]1O[C@H](O[C@H]2[C@H](O)[C@@H](O[C@H]3O[C@H](CO)[C@@H](O)[C@H](N)[C@H]3O)[C@H](N)C[C@@H]2N)[C@H](N)C[C@@H]1O,,starch gel membrane permeability,Gram-negative envelope surrogate,"200 µM, 45 min, pH 7.4",,amount permeated,1.04 nmol
